Measured values collected from several papers.
Each numbered part is a random draw from the data of one study; scales do not carry over between parts.
Sequence of UniProt Q8RYC6 (whole entry, looked up): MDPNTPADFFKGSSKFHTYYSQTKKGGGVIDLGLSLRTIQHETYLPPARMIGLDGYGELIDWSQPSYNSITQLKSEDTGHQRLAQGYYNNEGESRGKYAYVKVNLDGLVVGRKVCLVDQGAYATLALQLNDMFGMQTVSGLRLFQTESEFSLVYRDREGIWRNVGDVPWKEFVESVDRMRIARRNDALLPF
Sequence of UniProt Q9C7I9 (whole entry, looked up): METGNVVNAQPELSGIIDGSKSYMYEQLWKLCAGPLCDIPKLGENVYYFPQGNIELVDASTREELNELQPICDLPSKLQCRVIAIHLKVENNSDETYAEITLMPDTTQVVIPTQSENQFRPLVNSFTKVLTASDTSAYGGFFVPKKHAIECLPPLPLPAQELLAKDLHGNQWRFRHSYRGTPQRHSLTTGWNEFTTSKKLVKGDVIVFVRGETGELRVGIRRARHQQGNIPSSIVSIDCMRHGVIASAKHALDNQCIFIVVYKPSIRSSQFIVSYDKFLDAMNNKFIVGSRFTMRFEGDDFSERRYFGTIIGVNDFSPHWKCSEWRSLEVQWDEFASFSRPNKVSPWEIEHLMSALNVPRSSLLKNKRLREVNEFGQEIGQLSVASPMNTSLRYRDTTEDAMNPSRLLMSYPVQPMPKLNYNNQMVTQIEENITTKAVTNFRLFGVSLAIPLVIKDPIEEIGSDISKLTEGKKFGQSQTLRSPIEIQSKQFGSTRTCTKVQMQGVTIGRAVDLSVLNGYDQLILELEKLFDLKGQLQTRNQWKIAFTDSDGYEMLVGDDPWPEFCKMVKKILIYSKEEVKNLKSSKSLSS
Sequence of UniProt P93024 (whole entry, looked up): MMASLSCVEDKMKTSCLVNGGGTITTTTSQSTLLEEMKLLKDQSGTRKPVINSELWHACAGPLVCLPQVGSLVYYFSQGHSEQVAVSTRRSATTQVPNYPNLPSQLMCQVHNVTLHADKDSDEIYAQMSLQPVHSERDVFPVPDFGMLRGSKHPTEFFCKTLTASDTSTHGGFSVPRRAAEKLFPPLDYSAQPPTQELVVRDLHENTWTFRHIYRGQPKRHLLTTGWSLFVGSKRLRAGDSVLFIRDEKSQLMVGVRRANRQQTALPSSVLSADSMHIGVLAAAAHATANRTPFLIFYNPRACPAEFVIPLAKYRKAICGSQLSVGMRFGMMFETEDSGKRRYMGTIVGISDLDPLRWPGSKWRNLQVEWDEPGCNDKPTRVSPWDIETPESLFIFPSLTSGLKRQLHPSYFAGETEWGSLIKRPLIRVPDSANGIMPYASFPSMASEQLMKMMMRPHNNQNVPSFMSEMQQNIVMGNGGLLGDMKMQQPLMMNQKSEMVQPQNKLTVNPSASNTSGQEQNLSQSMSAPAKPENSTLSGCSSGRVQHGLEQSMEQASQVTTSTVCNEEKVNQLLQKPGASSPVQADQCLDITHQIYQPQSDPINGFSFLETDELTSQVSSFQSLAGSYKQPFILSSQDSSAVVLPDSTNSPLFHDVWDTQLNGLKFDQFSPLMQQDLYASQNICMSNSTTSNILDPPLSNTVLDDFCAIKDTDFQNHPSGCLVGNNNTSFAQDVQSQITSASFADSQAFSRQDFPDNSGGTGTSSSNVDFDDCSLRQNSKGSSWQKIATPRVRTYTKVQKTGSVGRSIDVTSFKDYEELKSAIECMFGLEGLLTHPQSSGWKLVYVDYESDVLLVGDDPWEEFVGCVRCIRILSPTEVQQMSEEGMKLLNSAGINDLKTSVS
Sequence of UniProt P54753 (whole entry, looked up): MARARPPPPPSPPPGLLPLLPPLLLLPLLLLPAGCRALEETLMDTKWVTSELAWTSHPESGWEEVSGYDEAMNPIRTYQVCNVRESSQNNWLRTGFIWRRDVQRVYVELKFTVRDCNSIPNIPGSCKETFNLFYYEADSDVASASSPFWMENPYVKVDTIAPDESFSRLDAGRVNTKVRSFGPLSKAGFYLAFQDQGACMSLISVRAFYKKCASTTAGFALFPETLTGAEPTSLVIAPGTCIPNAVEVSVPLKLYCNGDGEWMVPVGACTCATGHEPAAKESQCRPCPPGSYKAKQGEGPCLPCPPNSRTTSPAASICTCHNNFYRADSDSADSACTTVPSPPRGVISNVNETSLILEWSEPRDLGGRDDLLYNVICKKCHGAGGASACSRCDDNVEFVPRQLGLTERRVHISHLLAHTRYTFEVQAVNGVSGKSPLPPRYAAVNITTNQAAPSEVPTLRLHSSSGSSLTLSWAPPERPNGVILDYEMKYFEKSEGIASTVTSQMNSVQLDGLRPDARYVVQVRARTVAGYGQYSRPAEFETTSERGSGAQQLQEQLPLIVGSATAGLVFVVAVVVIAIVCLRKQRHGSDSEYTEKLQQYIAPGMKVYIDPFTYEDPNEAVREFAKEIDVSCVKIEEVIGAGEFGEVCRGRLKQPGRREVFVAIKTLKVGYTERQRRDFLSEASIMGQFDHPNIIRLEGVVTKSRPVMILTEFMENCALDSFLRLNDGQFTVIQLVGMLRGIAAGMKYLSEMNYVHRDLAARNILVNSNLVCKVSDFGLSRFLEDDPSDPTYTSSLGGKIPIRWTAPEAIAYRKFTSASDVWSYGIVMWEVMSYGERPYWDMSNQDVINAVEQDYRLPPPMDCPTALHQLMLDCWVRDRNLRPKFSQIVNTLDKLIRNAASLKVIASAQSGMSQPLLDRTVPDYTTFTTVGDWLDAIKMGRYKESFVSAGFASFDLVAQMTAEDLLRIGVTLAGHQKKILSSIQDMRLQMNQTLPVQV
Sequence of UniProt Q9FX25 (whole entry, looked up): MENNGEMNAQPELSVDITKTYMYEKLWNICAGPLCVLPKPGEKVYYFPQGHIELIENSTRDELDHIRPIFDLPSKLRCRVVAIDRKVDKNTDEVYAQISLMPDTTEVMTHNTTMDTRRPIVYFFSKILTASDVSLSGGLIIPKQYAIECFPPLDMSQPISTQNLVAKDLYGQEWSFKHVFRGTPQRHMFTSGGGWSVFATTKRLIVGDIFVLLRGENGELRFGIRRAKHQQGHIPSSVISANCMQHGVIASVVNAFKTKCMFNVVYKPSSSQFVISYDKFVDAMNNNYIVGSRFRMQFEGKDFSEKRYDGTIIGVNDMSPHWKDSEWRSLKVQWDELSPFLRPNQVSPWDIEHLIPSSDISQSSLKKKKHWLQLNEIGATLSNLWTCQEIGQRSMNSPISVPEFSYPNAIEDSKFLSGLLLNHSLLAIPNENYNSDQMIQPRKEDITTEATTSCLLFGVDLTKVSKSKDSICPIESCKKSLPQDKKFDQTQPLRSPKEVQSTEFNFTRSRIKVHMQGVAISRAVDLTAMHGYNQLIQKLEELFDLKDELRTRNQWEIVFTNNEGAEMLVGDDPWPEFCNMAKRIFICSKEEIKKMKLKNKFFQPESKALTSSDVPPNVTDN
Sequence of UniProt Q38831 (whole entry, looked up): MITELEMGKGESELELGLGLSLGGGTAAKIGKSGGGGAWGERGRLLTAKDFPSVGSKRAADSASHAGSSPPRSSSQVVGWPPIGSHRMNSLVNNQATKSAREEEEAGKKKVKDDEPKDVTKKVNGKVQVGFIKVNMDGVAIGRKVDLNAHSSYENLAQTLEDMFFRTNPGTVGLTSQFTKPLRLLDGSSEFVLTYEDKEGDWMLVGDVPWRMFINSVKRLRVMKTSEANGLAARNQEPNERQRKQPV
Sequence of UniProt Q9XED8 (whole entry, looked up): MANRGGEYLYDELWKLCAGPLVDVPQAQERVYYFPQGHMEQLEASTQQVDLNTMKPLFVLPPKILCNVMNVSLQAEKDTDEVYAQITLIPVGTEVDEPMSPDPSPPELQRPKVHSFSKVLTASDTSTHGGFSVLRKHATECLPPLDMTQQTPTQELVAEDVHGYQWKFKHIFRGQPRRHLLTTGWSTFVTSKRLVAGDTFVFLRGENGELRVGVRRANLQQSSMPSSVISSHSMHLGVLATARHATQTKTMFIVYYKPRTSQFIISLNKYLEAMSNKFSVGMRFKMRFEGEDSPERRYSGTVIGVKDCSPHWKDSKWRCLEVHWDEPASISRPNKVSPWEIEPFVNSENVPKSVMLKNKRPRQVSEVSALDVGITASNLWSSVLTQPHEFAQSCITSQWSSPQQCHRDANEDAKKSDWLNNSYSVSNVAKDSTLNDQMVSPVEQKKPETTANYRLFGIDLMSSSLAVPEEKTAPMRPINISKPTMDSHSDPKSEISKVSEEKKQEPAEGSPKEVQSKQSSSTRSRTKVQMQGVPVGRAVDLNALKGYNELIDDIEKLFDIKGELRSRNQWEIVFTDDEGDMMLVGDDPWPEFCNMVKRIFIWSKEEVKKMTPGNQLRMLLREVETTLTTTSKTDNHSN

Set 1 — method: two-hybrid; direction: higher = firmer interaction; measurement: positive tests
Molecule: IAA9 (Arabidopsis thaliana, UniProt Q38827)
Sequence of UniProt Q38827 (whole entry, looked up): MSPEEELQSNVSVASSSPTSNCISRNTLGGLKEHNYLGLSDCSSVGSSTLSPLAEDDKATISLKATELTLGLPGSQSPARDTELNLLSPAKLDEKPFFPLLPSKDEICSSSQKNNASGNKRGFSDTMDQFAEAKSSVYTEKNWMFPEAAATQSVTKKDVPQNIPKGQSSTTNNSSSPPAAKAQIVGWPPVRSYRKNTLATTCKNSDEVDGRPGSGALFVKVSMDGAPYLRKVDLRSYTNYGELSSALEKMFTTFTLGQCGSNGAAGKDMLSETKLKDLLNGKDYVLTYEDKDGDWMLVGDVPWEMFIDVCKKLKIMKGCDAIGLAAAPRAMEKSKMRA
ETT (Arabidopsis thaliana, UniProt O23661); baseline: out of 4 tests: 2
ARF20 484-590 (Arabidopsis thaliana, UniProt Q9C7I9); baseline: out of 2 tests: 0
IAA13 (Arabidopsis thaliana, UniProt Q38831); baseline: out of 2 tests: 2
ARF5 788-902 (Arabidopsis thaliana, UniProt P93024); baseline: out of 0 tests: 0
ARF9 519-638 (Arabidopsis thaliana, UniProt Q9XED8); weak activation fusion; baseline: out of 0 tests: 0
ARF10 575-693 (Arabidopsis thaliana, UniProt Q9SKN5); baseline: out of 4 tests: 0
ARF13 (Arabidopsis thaliana, UniProt Q9FX25); baseline: out of 4 tests: 1
IAA32 (Arabidopsis thaliana, UniProt Q8RYC6); baseline: out of 4 tests: 1

Set 2 — method: universal PBM; molecule type: double-stranded DNA, one strand shown; medium: in vitro; tested at: not given; direction: higher = stronger binding; measurement: E-score
Target: Sal-like protein 4, full length isoform B (SALL4, Homo sapiens, UniProt Q9UJQ4-2, residues 1-616)
Setting: 8-mer, flanks averaged, mean of replicates
Target sequence (chain): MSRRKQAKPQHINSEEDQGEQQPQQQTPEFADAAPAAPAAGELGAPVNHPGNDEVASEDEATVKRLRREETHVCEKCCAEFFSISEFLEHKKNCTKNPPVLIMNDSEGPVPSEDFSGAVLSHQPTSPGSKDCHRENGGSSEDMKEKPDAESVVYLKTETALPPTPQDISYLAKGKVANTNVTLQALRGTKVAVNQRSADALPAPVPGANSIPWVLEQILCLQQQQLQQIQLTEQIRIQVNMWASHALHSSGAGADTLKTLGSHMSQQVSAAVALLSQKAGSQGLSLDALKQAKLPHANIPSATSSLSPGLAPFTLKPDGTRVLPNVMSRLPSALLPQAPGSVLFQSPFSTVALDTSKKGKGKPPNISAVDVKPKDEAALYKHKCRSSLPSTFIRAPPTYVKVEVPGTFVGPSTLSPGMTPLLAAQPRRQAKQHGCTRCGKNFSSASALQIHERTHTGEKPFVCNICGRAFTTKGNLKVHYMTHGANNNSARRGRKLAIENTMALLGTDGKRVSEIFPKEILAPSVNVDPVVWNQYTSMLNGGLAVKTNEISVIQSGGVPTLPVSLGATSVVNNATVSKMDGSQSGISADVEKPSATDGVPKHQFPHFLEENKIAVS
AATTGTTA: 0.345
TATTCCCA: 0.188
AGCGGAGA: -0.128
AGATTGCA: 0.13
TCCCGACA: -0.0558
CACAAGCG: -0.103
ATCGGTGG: -0.164
GGCCAGCA: -0.245

Other studies, line by line
Histone H2A type 1-B/E (Homo sapiens, UniProt P04908)  interaction screen (H2BC21 (Homo sapiens, UniProt Q16778); cross-linking MS; hits only): cross-linked
c1ccc(-c2[nH]ncc2-c2ccnc3ccccc23)nc1  remaining activity (EPHB3 (Homo sapiens, UniProt P54753); enzyme activity, inhibitor; 0.5 µM; baseline: control): 97.1%
PARP9 (Homo sapiens, UniProt Q8IXQ6)  cross-linked residues (DTX3L (Homo sapiens, UniProt Q8TDB6); cross-linking MS; cell fractions; with: DSSO): K557 to K401
PHB2 (Homo sapiens, UniProt Q99623)  cross-linked residues (OCIAD1 (Homo sapiens, UniProt Q9NX40); cross-linking MS; cell fractions; with: DMTMM): K89 to E245
LTN1 (Homo sapiens, UniProt O94822)  cross-linked residues (H1-10 (Homo sapiens, UniProt Q92522); cross-linking MS; cell fractions; with: DSSO): S192 to K166

Some of these lines once more (set 1):
ARF20 484-590 (Arabidopsis thaliana, UniProt Q9C7I9); baseline: out of 2 tests: 0
IAA13 (Arabidopsis thaliana, UniProt Q38831); baseline: out of 2 tests: 2
ARF5 788-902 (Arabidopsis thaliana, UniProt P93024); baseline: out of 0 tests: 0
